Experimental data collected from several papers.
Each line is one published result; not all experiments were run side by side. Values joined by “and” are separate records of one study, mostly repeats; a detail may differ. ± marks the error that the study gave. ≈ marks a conversion by molar mass, not a printed value.

With CN1CCN(C2(CNC3CCN(c4cccc(-c5cc6cc(F)ccc6[nH]5)c4)CC3)CCC2)CC1 the CC50 was 5.87 µM (OVCAR-3).
[131I-].[Na+] has a hypothyroid patients of 35.7% (radioiodine ablation; human hyperthyroidism patients; 185 MBq, 10 years, long-term follow-up).
The TGI of COc1cc(CCC[P+](c2ccccc2)(c2ccccc2)c2ccccc2)c(OC)c2c1OCO2.[I-] is reported as -4.13 log M (DU-145; SRB).
N.N.[Cl][Pt][Cl] gave an IC50 of 17.2 µM (CAL-27; cell viability, MTT; 48 h).
CN1CC[C@]23c4c5ccc(O)c4O[C@H]2[C@@H](OS(=O)(=O)O)C=C[C@H]3[C@H]1C5 — result for “peak increase in tail withdrawal latency”: 3.4 ± 0.5 s (hot water tail withdrawal test; STZ-diabetic Sprague-Dawley rats; ip, 0.3 mg/kg).
For C[C@H](C(=O)N[C@H]1COc2ccccc2[C@@H]1S(C)(=O)=O)c1ccc(F)cc1, the inhibition was -3% (sigma receptor, guinea pig; binding; 10 µM, Eurofins selectivity panel).
The Log10TGI of COc1c(CCC[P+](c2ccccc2)(c2ccccc2)c2ccccc2)cc2c(c1OC)OCO2.[I-] is reported as -5.83 log M (HL-60(TB); SRB).
With CC[C@H](C)[C@H](NC(=O)[C@H](C)NC(=O)[C@H](CCCCN)NC(=O)[C@H](CC(C)C)NC(=O)[C@H](C)NC(=O)[C@@H](NC(=O)[C@H](Cc1c[nH]cn1)NC(=O)[C@H](CC(C)C)NC(=O)[C@@H](NC(=O)[C@@H](NC(=O)[C@H](CCCCN)NC(=O)[C@H](C)NC(=O)[C@H](C)NC(=O)[C@H](CO)NC(=O)[C@H](CCCCN)NC(=O)[C@H](Cc1ccccc1)NC(=O)[C@@H](NC(=O)[C@H](CCCCN)NC(=O)[C@H](CC(C)C)NC(=O)[C@H](Cc1ccccc1)NC(=O)[C@H](CO)NC(=O)[C@H](CCCCN)NC(=O)[C@H](Cc1c[nH]c2ccccc12)NC(=O)[C@H](CCCCN)NC(C)=O)[C@@H](C)O)[C@@H](C)O)C(C)C)[C@@H](C)O)C(=O)N[C@@H](CO)C(=O)N[C@@H](CO)C(N)=O the MBC50 was 8 µg/mL (≈ 2.73 µM) (Enterobacter cloacae; 40 strains).
CC(=O)c1c(C)c2cnc(Nc3ccc(C4CCN(CCS(C)(=O)=O)CC4)cn3)nc2n(C2CCCC2)c1=O gave a T/C of 89% (tumour growth; mouse, MDA-MB-435S xenograft; oral, 20 mg/kg twice daily, 25 days).
For O=C1NC(=O)C(C2C3=C(CCCC3=O)Oc3ccc([N+](=O)[O-])cc32)C(=O)N1 (stereo not shown), the lipid content was 0.492 OD492 and 0.51 OD492 and 0.578 OD492 (3T3-L1 preadipocytes; adipogenesis, Oil Red O staining; IC20, 14 days, single replicate).
For CC(C)N1CCC(NC2CCN(c3cccc(-c4cc5cc(F)ccc5[nH]4)c3)CC2)CC1, the GI50 was 1.65 µM (OVCAR-3).
The fold enrichment of Nc1ncnc2c1ncn2[C@@H]1O[C@@H]2COP(=O)(O)O[C@H]3[C@@H](O)[C@H](n4cnc5c(=O)[nH]cnc54)O[C@@H]3COP(=O)(O)O[C@H]2[C@H]1O is reported as 12.5 (HFF-1; RNA sequencing, measured: Reactome Interferon Signaling; upregulated pathways; reference: mock).
With O=C(NNc1ccc(Cl)c(Cl)c1)c1nnc(CC23CC4CC(CC(C4)C2)C3)o1 the EC50 was over 50 µg/mL (Fusarium graminearum; fungal growth, inhibitor).
The event-free survival of CN1CCN(S(=O)(=O)c2cc([N+](=O)[O-])ccc2N(CCOS(C)(=O)=O)CCOS(C)(=O)=O)CC1 is reported as 63.3 days (NSG mice, sample CA PDX; intraperitoneal, 25 mg/kg weekly x3).
CCCCC1(CCCC)CN(c2ccccc2)c2cc(SC)c(OCC(=O)N[C@@H](C(=O)NCC(=O)O)c3ccccc3)cc2S(=O)(=O)C1 gave a serum HDL-C of 51.2 mg/dL (measured: HDL cholesterol; human, serum; 20 mg once daily, day 7).
Under “log2 fold change”, CC[C@H](C)[C@@H]1NC(=O)[C@@H]2CCCN2C(=O)[C@H](CC(C)C)NC(=O)[C@H](CC(C)C)NC(=O)CNC(=O)[C@@H](NC(=O)[C@@H](NC(=O)[C@H](CC(=O)O)NC(=O)CNC(=O)[C@@H](NC(=O)[C@H](C)NC(=O)CNC(=O)[C@H](CCCCN)NC(=O)[C@H](CC(C)C)NC(=O)[C@H](CC(C)C)NC(=O)[C@H](CCCCN)NC(=O)CNC(=O)[C@@H](NC(=O)[C@@H](N)CC(C)C)C(C)C)C(C)C)C(C)C)CSSC[C@@H](C(=O)O)NC1=O is recorded as -2.06 (RNA-seq, measured: Ier3; mouse, traumatic brain injury model, frontal cortex and hippocampus; dose not given; reference: TBI alone).
